Published values from different studies.
A part holds a random share of what one study measured. Several values in a cell are separate wells, animals, samples, runs or records.
Sequence of UniProt Q9UPE1 (whole entry, looked up): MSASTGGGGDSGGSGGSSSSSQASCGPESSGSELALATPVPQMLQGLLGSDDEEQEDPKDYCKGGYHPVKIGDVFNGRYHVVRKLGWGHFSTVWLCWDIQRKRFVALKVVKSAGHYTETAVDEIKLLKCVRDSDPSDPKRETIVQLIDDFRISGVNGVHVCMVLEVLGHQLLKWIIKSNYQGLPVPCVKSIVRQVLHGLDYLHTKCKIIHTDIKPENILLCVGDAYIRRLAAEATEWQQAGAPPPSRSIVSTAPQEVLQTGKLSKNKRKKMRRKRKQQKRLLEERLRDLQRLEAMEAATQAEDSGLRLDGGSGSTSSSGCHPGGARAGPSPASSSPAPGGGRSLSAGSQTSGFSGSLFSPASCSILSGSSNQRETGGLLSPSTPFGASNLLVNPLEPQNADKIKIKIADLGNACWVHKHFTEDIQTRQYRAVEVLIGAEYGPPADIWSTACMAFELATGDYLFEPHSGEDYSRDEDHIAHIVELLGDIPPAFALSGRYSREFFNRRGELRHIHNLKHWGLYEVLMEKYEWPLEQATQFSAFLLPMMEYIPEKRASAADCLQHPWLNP
Sequence of UniProt Q8IVH8 (whole entry, looked up): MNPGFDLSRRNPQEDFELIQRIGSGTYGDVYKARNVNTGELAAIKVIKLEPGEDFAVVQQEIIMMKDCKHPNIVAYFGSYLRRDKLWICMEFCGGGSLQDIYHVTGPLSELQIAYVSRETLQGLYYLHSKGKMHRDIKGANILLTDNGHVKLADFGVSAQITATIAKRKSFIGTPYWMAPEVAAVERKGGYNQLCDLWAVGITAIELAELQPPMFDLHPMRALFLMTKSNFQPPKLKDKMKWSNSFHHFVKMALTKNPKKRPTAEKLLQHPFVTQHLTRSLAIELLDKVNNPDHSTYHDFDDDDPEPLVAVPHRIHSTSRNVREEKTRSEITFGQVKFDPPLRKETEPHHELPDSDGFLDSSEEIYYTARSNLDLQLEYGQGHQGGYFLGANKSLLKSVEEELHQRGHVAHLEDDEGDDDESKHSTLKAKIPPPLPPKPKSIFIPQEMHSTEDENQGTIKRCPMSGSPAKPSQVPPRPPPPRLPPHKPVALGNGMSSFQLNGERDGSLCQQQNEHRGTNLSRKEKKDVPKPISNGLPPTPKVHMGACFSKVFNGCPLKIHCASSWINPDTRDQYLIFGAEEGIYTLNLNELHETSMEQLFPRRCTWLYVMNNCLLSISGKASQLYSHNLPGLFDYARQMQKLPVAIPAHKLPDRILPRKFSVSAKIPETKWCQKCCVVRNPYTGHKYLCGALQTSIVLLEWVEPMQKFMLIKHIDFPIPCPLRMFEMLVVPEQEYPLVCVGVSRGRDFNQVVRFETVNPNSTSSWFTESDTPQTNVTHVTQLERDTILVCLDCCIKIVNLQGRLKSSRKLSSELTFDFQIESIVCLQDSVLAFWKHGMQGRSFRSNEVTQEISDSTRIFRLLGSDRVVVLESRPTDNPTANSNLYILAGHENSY
Sequence of UniProt O94768 (whole entry, looked up): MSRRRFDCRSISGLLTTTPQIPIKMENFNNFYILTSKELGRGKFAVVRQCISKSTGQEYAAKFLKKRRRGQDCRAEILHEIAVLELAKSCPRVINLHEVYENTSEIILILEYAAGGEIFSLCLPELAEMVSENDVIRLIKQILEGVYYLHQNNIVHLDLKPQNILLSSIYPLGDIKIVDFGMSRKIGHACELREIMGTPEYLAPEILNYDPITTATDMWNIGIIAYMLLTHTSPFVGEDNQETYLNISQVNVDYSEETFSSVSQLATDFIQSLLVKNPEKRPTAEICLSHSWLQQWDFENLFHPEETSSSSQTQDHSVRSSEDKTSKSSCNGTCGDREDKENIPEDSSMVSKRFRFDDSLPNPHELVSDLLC
Sequence of UniProt Q5VT25 (whole entry, looked up): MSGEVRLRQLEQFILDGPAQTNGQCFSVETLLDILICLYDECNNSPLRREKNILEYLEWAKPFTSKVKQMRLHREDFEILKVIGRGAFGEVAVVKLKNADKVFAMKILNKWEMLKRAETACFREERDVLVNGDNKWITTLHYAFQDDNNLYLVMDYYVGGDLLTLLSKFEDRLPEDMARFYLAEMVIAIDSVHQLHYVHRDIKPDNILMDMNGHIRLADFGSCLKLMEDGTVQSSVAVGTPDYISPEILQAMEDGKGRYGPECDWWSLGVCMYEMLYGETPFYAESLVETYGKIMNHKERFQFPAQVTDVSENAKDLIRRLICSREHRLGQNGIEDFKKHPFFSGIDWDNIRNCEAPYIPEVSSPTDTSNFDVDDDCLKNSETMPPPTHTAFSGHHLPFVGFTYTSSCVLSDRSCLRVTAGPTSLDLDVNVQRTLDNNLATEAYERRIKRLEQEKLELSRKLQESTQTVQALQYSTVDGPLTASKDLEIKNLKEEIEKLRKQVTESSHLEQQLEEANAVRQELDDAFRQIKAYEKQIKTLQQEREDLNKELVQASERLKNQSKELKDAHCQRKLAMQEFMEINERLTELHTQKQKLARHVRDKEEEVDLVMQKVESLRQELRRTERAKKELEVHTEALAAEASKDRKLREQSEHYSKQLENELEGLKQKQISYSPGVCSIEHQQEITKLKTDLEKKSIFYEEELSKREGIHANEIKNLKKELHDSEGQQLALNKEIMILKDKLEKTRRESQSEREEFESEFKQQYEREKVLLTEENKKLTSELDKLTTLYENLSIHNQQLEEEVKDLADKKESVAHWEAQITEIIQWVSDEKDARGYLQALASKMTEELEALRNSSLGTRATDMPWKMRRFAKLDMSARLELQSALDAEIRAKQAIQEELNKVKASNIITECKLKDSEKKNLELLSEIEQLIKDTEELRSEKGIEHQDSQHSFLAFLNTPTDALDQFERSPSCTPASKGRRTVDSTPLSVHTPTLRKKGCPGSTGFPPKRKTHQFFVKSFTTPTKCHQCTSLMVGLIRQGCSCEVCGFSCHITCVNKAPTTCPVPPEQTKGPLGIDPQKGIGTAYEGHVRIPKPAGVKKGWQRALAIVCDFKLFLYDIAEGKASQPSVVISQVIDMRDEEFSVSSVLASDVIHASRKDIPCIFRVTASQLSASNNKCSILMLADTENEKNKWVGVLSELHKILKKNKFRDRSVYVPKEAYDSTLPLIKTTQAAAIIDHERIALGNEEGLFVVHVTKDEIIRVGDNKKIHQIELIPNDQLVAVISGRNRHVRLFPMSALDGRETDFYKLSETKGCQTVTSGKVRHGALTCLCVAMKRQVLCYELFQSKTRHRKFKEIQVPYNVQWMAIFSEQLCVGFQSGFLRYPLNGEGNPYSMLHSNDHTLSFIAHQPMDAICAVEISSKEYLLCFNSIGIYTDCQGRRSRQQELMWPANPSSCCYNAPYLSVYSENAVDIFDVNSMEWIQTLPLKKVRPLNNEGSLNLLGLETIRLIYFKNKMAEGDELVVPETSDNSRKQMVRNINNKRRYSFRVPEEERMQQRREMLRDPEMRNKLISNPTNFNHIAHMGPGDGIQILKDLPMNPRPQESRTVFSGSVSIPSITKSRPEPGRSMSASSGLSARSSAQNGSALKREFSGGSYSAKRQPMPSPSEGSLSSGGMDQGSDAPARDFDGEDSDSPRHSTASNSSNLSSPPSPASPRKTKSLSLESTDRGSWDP

Set 1
Target: MAP kinase-interacting serine/threonine-protein kinase 2 (MKNK2, Homo sapiens, UniProt Q9HBH9)
Sequence of UniProt Q9HBH9 (whole entry, looked up): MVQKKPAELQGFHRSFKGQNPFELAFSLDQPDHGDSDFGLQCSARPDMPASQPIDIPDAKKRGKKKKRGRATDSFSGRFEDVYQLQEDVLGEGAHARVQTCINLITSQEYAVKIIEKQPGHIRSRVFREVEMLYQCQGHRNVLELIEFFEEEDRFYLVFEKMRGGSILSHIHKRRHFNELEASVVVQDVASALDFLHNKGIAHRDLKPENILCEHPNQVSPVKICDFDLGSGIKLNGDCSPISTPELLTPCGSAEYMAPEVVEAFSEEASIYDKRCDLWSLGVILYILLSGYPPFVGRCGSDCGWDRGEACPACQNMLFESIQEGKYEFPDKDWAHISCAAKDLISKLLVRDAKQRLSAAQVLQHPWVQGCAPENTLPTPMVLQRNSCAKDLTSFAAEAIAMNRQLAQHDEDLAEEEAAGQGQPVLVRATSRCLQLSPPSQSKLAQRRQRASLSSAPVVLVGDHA
Observed: enzyme activity
Action: inhibitor
Concentration: 0.5 µM
Baseline: control
Measurement: remaining activity
COc1cc2ncnc(Nc3ccc(F)c(Cl)c3)c2cc1OCCCN1CCOCC1: 54.1%
Nc1ccc2ncnc(NCCc3ccc(Oc4ccccc4)cc3)c2c1: 104%
COc1cc2nccc(Oc3ccc(NC(=S)NC(=O)c4ccccc4C)cc3)c2cc1OC: 94.3%
C#Cc1cccc(Nc2ncnc3cc(OCCOC)c(OCCOC)cc23)c1: 68.5%
Cn1sc(=O)n(Cc2ccccc2)c1=O: 92.1%
CC(C)[C@H](CO)Nc1nc(Nc2cc(N)cc(Cl)c2)c2ncn(C(C)C)c2n1: 113%
Cc1ccc(NC(=O)c2ccc(CN3CCN(C)CC3)cc2)cc1Nc1nc(-c2cccnc2)cs1: 103%
Cc1cccc(-c2[nH]c(C(C)(C)C)nc2-c2ccc3c(c2)OCO3)n1: 87.8%
CN(C)c1ccc(C=C2C(=O)Nc3ccccc32)cc1: 90.5%
Nc1[nH]nc2nc3ccccc3nc12: 89.1%
Cc1ccc(Nc2nccc(N(C)c3ccc4c(C)n(C)nc4c3)n2)cc1S(N)(=O)=O: 107%
O=c1c2ccccc2[nH]c(=S)n1CCN1CCC(=C(c2ccc(F)cc2)c2ccc(F)cc2)CC1: 89.5%
N#CC(C#N)=C(N)/C(C#N)=C/c1ccc(O)cc1: 79.1%
OCC(O)CCON=C1C(c2c(O)[nH]c3ccccc23)=Nc2ccccc21 (stereo not drawn): 72.4%
CCOC(=O)c1c(C)[nH]c(/C=C2\C(=O)Nc3ccccc32)c1C: 87.4%

Set 2
SMILES: NS(=O)(=O)c1cc(NC(=O)C2(c3ccccc3Cl)CC2)ccc1Oc1cccc(Cl)c1
Observed: cell-free assay
Method: competition with immobilised ligand
Concentration: 1 µM
Measurement: remaining binding
Serine/threonine-protein kinase 17B (STK17B, Homo sapiens, UniProt O94768): 97%
Serine/threonine-protein kinase MRCK alpha (CDC42BPA, Homo sapiens, UniProt Q5VT25): 95%
SRSF protein kinase 3 (SRPK3, Homo sapiens, UniProt Q9UPE1): 80%
Mitogen-activated protein kinase kinase kinase kinase 3 (MAP4K3, Homo sapiens, UniProt Q8IVH8): 100%

Set 3
Molecule: KRT8 (Homo sapiens, UniProt P05787)
Method: cross-linking MS
Matrix: cells
Together with: BSPNO
Measurement: cross-linked residues
CCDC88A (Homo sapiens, UniProt Q3V6T2): K160 to K839
CSPP1 (Homo sapiens, UniProt Q1MSJ5): K11 to K974
KRT20 (Homo sapiens, UniProt P35900): K264 to K245
KRT74 (Homo sapiens, UniProt Q7RTS7): K264 to K150
KRT7 (Homo sapiens, UniProt P08729): K285 to K365
FBLN7 (Homo sapiens, UniProt Q53RD9): K264 to K45
NTS (Homo sapiens, UniProt P30990): K160 to K156
KRT77 (Homo sapiens, UniProt Q7Z794): K176 to K253

Set 4
Target: Centromere-binding protein 1, full length, His-tagged (CBF1, Saccharomyces cerevisiae, UniProt P17106, residues 1-351)
Sequence of UniProt P17106 (whole entry, looked up): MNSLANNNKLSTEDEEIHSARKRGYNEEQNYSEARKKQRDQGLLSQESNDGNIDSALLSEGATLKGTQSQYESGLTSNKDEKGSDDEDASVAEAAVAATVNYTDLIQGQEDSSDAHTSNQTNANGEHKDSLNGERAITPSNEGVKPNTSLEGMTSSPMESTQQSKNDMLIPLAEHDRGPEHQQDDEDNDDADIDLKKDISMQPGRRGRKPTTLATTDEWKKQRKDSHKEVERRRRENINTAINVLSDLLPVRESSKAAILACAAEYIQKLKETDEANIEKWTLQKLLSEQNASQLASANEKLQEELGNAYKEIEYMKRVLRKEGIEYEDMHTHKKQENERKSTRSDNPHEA
Method: competition protein-binding microarray
Molecule type: double-stranded DNA, one strand shown
Matrix: in vitro
Concentration: 2 µM
Setting: whole 60-bp probe, lowest competitor level
Together with: Pho4 competitor, 0.05 µM
Direction: higher = stronger binding
Measurement: fluorescence intensity
Shared flanks, not repeated: … GTCTTGATTCGCTTGACGCTGCTG
TTCGACAGCGCTAACGTTGTGACGGTAAGTGCTTTC: 62.4 a.u.
GGTGTTTGGTAGAGTCAGGTGATTTACTGATTCTTC: 1380 a.u.
GATACCCCGTTGCACCATGTGGAGGATGTAGCCACT: 70.5 a.u.
GATGAACTGAAAAGGCACATGAGAACGCATACAGGG: 88.8 a.u.
CGTCCTAGTGATTTTCACGTGAGGTCCATGAGGAAG: 959 a.u.
AAAGCGGTAATTTTTCACGTGGCTTCACATATCTAT: 983 a.u.
ACACAGATTGGCCATCACGCACCCATAATCATTTCT: 147 a.u.
CCGAACCTTTGAGCGGTCATGACAACTTCAATTCTT: 83.5 a.u.

Further values, each from its own experiment
CN(N=O)C(=O)N[C@@H]1[C@@H](O)[C@H](O)[C@@H](CO)O[C@@H]1O
blood glucose (mice, STZ diabetic neuropathy; dose not given, 3 days after STZ): 419 mg/dL and 360 mg/dL and 364 mg/dL and 553 mg/dL and 518 mg/dL

Excerpt of the above (set 3):
KRT74 (Homo sapiens, UniProt Q7RTS7): K264 to K150
KRT7 (Homo sapiens, UniProt P08729): K285 to K365
